Experimental data gathered from unrelated publications.
“And” joins repeats or separate records; there may be more than shown. ± marks the error that the study gave.
B1: FADD death domain 93-192; chain GEEDLCAAFNVICDNVGKDWRRLARQLKVSDTKIDSIEDRYPRNLTERVRESLRIWKNTEKENATVAHLVGALRSCQMNLVADLVQEVQQARDLQNRSGA

COc1ncc(-c2cn([C@@H]3O[C@](F)(CO)[C@@H](O)[C@H]3O)cn2)cn1  IC50 (Zaire ebolavirus; viral replication, reporter virus; Huh-7; 72 h): 44.1 µM
HSP90 fragment R610A (Plasmodium falciparum)  subunits per oligomer (itself; mass photometry): 2
O=c1ccn([C@@H]2O[C@](F)(CO)[C@@H](O)[C@H]2O)c(=O)[nH]1  EC50 (Mammarenavirus lassaense; viral replication; HeLa, clade IV NJ-2015): 2.09 µM
COc1cc2ncnc(Nc3cccc(Cl)c3)c2cc1OC  inhibition (Monkeypox virus; viral replication; replication-deficient; 10 µM): 98% and 99.9% and 99.8%
Cc1cccc(NC(=O)CS(=O)(=O)c2nc(-c3ccccc3)cn2-c2ccc(Cl)cc2)c1C  inhibition (MERS-CoV spike VSV pseudovirus; pseudovirus entry; 10 µM): 26%
COc1ncc(-c2cn([C@@H]3O[C@](F)(CO)[C@@H](O)[C@H]3O)cn2)c(N)n1  IC50 (Zaire ebolavirus; viral replication, reporter virus; Huh-7; 72 h): 39 µM
HSP90 fragment E566A (Plasmodium falciparum)  subunits per oligomer (itself; mass photometry): 2
B1 (FADD death domain 93-192)  Kd (sseK2 34-348 N302Y (Salmonella enterica, UniProt Q8ZNP4); ITC; together with: UDP): 94.4 ± 21.9 µM

Some of these lines once more:
Cc1cccc(NC(=O)CS(=O)(=O)c2nc(-c3ccccc3)cn2-c2ccc(Cl)cc2)c1C  inhibition (MERS-CoV spike VSV pseudovirus; pseudovirus entry; 10 µM): 26%
